# Experimental data of several laboratories.
# Numbered parts are unrelated; each lists some results of a single study. Values joined by “and” are separate records of one study, mostly repeats; a detail may differ.
# Sequence of UniProt O43781 (whole entry, looked up): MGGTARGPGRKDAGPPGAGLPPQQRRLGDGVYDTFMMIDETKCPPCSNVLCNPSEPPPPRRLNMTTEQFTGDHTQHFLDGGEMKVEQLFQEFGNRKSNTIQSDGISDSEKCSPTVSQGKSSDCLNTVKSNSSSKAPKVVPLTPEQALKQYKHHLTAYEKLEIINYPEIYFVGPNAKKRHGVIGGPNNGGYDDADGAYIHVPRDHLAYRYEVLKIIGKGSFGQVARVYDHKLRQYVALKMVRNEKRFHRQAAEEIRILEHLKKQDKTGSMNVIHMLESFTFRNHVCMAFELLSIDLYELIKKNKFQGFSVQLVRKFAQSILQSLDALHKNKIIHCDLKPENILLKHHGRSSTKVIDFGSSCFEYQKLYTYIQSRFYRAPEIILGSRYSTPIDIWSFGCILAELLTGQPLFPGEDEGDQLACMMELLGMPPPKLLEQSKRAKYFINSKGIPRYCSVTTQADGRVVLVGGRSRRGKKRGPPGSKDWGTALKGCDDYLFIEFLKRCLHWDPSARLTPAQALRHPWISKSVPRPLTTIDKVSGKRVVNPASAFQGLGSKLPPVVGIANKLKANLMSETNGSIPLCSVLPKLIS
# Sequence of UniProt P51677 (whole entry, looked up): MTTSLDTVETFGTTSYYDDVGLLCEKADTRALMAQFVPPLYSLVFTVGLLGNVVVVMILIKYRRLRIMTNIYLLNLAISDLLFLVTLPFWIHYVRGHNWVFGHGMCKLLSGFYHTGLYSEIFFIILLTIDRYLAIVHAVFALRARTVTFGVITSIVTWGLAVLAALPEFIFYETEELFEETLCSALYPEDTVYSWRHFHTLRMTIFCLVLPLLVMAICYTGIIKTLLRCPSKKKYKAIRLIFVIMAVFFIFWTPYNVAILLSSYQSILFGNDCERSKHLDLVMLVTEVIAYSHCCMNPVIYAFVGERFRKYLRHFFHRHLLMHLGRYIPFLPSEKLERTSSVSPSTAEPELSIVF
# Sequence of UniProt Q00534 (whole entry, looked up): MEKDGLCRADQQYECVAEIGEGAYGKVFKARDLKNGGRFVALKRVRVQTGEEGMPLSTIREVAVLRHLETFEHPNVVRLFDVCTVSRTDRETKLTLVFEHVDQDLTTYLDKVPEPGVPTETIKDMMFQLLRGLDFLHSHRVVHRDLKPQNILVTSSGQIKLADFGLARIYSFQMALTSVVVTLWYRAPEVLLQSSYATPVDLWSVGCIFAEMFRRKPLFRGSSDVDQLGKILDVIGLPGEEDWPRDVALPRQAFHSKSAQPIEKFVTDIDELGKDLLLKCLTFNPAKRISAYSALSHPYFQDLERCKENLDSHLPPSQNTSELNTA
# Sequence of UniProt Q96PF2 (whole entry, looked up): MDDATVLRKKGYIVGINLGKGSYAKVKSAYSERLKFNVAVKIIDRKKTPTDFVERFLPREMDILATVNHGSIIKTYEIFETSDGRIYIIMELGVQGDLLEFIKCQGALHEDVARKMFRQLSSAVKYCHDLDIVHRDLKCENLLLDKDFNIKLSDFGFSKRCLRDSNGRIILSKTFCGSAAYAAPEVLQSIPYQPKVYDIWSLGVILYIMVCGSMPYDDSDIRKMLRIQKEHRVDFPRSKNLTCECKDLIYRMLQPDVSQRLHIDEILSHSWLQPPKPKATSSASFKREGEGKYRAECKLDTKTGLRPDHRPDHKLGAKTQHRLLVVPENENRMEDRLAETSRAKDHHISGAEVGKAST
# Sequence of UniProt P54764 (whole entry, looked up): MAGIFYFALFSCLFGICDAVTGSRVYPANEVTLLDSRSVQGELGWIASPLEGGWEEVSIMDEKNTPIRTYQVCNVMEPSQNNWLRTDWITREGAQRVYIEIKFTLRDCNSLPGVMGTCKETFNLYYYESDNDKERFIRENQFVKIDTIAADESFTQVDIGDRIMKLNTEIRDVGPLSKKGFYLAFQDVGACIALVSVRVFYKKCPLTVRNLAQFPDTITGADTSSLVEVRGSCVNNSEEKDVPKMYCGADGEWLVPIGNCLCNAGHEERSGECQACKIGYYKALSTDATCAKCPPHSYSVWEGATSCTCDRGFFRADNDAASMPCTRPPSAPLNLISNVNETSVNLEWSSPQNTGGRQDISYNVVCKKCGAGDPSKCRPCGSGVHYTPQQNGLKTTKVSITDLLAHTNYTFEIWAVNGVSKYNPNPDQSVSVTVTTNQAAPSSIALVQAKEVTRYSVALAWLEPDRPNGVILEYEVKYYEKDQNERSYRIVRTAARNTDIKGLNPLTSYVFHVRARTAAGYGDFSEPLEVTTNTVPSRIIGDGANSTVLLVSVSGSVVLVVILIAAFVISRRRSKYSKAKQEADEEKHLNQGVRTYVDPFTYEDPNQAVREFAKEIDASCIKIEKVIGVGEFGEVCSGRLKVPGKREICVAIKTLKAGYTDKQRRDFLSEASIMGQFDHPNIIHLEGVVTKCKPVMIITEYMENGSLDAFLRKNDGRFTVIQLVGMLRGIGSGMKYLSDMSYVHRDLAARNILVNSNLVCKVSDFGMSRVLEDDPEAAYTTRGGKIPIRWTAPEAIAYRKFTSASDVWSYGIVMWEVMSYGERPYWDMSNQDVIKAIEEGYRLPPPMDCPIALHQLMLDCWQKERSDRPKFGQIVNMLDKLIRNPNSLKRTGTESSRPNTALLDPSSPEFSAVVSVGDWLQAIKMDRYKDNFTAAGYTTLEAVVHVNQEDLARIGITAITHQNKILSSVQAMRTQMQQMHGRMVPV
# Sequence of UniProt P49019 (whole entry, looked up): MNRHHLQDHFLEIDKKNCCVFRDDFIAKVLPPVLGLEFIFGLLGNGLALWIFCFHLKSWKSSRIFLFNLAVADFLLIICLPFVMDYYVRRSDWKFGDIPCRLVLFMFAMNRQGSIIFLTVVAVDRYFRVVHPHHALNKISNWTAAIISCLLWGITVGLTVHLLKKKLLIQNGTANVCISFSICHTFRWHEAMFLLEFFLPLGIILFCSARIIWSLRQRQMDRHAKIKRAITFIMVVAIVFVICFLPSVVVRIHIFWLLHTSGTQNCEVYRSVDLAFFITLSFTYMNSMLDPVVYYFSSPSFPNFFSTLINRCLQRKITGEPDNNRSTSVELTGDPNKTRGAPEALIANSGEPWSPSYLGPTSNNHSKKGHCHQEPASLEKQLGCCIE
# Sequence of UniProt P21452 (whole entry, looked up): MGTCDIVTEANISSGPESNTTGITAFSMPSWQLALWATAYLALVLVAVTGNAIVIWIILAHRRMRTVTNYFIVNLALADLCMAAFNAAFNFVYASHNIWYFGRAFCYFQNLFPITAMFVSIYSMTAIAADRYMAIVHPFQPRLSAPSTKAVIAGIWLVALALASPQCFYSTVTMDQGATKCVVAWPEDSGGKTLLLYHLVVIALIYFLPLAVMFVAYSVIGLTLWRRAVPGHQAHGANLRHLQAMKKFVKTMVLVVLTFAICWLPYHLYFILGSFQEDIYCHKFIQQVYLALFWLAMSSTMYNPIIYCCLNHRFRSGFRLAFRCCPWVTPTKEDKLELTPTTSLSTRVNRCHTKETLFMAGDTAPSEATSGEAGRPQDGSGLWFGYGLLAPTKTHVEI
# Sequence of UniProt P51451 (whole entry, looked up): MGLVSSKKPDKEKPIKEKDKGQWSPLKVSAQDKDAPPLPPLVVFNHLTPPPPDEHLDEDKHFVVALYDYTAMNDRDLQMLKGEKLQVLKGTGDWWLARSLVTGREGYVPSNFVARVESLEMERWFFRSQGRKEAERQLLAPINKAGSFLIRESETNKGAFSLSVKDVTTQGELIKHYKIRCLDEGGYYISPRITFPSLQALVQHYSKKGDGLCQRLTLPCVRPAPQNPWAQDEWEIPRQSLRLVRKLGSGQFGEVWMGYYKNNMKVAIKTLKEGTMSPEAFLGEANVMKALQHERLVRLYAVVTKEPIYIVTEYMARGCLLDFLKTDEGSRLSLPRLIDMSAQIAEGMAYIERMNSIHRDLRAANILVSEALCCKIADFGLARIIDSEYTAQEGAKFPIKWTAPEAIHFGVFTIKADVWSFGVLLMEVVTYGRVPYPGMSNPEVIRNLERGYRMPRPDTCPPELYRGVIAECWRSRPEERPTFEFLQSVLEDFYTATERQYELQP
# Sequence of UniProt P30550 (whole entry, looked up): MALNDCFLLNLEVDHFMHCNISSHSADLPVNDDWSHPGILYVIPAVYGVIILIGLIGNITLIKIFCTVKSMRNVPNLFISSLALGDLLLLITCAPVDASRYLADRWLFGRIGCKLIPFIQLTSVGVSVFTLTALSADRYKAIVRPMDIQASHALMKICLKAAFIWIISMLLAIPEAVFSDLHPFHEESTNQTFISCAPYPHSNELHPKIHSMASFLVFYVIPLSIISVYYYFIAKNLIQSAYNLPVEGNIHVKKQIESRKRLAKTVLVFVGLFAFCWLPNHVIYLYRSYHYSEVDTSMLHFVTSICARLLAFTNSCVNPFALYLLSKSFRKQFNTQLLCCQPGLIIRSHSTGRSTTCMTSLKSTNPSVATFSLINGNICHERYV

# Study 1
# Cell line: mouse MPNST tumor cells
# Method: high-content immunofluorescence imaging
# Refers to: nuclear SOX9
# Tested at: 10 µM
# Time: 12 h
# Notes: mean of 2 replicates
# Baseline: DMSO control
# Direction: higher = more nuclear SOX9
SMILES,nuclear SOX9 intensity
COc1cccc(OC)c1-c1ccc(C[C@H](NC(=O)c2c(Cl)cccc2Cl)C(=O)O)cc1,83 % of DMSO
O=C1C(=O)c2ccccc2C(O)=C1C1CCC(c2ccc(Cl)cc2)CC1 (stereo not shown),101 % of DMSO and 95.8 % of DMSO
CC(C)(C(=O)O)c1ccc(C(O)CCCN2CCC(C(O)(c3ccccc3)c3ccccc3)CC2)cc1 (stereo not shown),99.7 % of DMSO and 88.7 % of DMSO
CCCc1nc2c(C)cc(-c3nc4ccccc4n3C)cc2n1Cc1ccc(-c2ccccc2C(=O)O)cc1,86.6 % of DMSO and 90.7 % of DMSO
C[C@H](CCC(=O)O)[C@H]1CC[C@H]2[C@@H]3[C@H](O)C[C@@H]4C[C@H](O)CC[C@]4(C)[C@H]3CC[C@]12C,103 % of DMSO
COc1cccc([C@H](O)C2CCN(CCc3ccc(F)cc3)CC2)c1OC,134 % of DMSO
COC(=O)c1csc(C(=O)c2c[nH]c3ccccc23)n1,83.5 % of DMSO
Cc1cnc(C(=O)O)c[n+]1[O-],114 % of DMSO and 81.9 % of DMSO
Nc1ccccc1NC(=O)c1ccc(CNC(=O)OCc2cccnc2)cc1,128 % of DMSO
COc1ccc(C2CC(c3c(O)cc(C)oc3=O)=NCCS2)c(OC)c1 (stereo not shown),227 % of DMSO
CC(=O)Nc1ccc(CC(=O)O)cc1,96.3 % of DMSO
COc1cc(Br)c(S(=O)(=O)Nc2ccc(Cl)c(OC3CCN(C)C3)c2)cc1OC (stereo not shown),123 % of DMSO

# Study 2
# Target: Beta-2 adrenergic receptor (ADRB2, Homo sapiens, UniProt P07550)
# Sequence of UniProt P07550 (whole entry, looked up): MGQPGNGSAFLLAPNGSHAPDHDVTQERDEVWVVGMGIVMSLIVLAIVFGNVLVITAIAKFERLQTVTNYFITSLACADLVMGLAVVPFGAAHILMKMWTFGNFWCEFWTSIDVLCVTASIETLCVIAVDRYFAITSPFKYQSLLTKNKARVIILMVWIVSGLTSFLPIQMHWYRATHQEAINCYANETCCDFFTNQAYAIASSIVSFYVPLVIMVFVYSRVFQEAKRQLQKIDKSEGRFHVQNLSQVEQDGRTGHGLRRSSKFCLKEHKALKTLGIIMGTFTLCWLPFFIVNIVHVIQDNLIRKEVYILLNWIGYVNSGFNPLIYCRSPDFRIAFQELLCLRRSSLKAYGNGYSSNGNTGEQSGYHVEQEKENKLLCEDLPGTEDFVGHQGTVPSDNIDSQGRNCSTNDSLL
# Effect on: binding
# Method: radioligand binding
# Tested at: 10 µM
Compound,inhibition
CC(C)(O)c1cncc(-c2nc3ccc(F)cc3n2C2CC2)c1,2.65%
CNC(=O)Nc1ccc2c(c1)[C@]1(CC2)OC(=O)N(CC(=O)N(Cc2ccc(F)cc2)[C@@H](C)C(F)(F)F)C1=O,24.7%
CN([C@@H]1CCc2c(CC(=O)O)c3cc(S(C)(=O)=O)ccc3n2C1)S(=O)(=O)c1ccc(F)cc1,0.0525%
CN1CCN(C(=O)C(C)(C)c2ccc(C(=O)Nc3cn4cc(-c5ccncc5)ccc4n3)cc2)CC1,16.6%
C[C@@H]1CN(c2cc(-c3nn(C)c4ccc(OC5(C)CC5)cc34)ncn2)C[C@H](C)O1,13.8%
CCOCCn1cc(C(=O)Nc2ccc(-n3nc(-c4cccnc4)cc3C(F)(F)F)cn2)ccc1=O,-1.17%
Nc1c(C(=O)NCc2ccc(C(=O)NCCCC3CCCCC3)cc2)cnn1-c1ccccc1,6.62%
CCOC(=O)c1cc2cc(-c3cc(C(=O)NCc4ccc(C(=O)O)cc4)nn3C)ccc2[nH]1,-7.76%
O=C1CCc2cc(Nc3cc(OC4CCOCC4)c([N+](=O)[O-])cc3Cl)ccc2N1,-1.73%
COc1nc2ccc([C@@](O)(c3ccccc3)C3CCN(C(C)=O)CC3)cc2c(Cl)c1Cc1ccc(-n2cccn2)cc1,15.6%
O[C@]1(C(F)(F)F)CCCC[C@H]1Nc1ccc(F)cc1,7.94%

# Study 3
# Structure (SMILES): N=C(N)NC(=O)c1cnn(-c2cccc3ncccc23)c1C1CC1
# Effect on: β-arrestin recruitment
# Mode: agonist
# Method: PRESTO-Tango
# Tested at: 10 µM
# Baseline: untreated
target,fold over basal
"G-protein coupled receptor 62 (GPR62, Homo sapiens, UniProt Q9BZJ7)",0.99
"HCAR3 (Homo sapiens, UniProt P49019)",1.48 fold
"TACR2 (Homo sapiens, UniProt P21452)",0.84 fold
"GRPR (Homo sapiens, UniProt P30550)",0.88 fold
"CHRM2 (Homo sapiens, UniProt P08172)",1.01
"Relaxin receptor 2 (RXFP2, Homo sapiens, UniProt Q8WXD0)",1.04
"Calcitonin receptor, isoform b (CALCR, Homo sapiens, UniProt P30988)",0.93
"NPBWR1 (Homo sapiens, UniProt P48145)",1.02
"CCR3 (Homo sapiens, UniProt P51677)",0.86
"N-formyl peptide receptor 3 (Homo sapiens, UniProt P25089)",0.89 fold

# Study 4
# Structure (SMILES): CCN(CC)CCNC(=O)c1c(C)[nH]c(/C=C2\C(=O)Nc3ccc(Cl)cc32)c1C
# Effect on: enzyme activity
# Mode: inhibitor
# Tested at: 0.5 µM
# Baseline: control
target,remaining activity
"EPHA4 (Homo sapiens, UniProt P54764)",88%
"PHKG1 (Homo sapiens, UniProt Q16816)",3.19%
"RPS6KA5 (Homo sapiens, UniProt O75582)",59%
"EPHB1 (Homo sapiens, UniProt P54762)",60.8%
"MAPKAPK3 (Homo sapiens, UniProt Q16644)",101%
"HIPK4 (Homo sapiens, UniProt Q8NE63)",61.7%
"BLK (Homo sapiens, UniProt P51451)",15.8%
"STK16 (Homo sapiens, UniProt O75716)",72.9%
"Cyclin-dependent kinase 4, with cyclin D3 (CDK4, Homo sapiens, UniProt P11802)",86.3%
"DYRK3 (Homo sapiens, UniProt O43781)",81.8%
"STK17A (Homo sapiens, UniProt Q9UEE5)",16.1%
"PDPK1 (Homo sapiens, UniProt O15530)",101%
"ABL1 (Homo sapiens, UniProt P00519)",24.7%
"MAP4K4 (Homo sapiens, UniProt O95819)",4.33%
"TSSK2 (Homo sapiens, UniProt Q96PF2)",66.9%
"Cyclin-dependent kinase 6, with cyclin D3 (CDK6, Homo sapiens, UniProt Q00534)",41.6%
"HIPK2 (Homo sapiens, UniProt Q9H2X6)",20%
"Cyclin-dependent kinase 1, with cyclin B (CDK1, Homo sapiens, UniProt P06493)",109%
"RPS6KA6 (Homo sapiens, UniProt Q9UK32)",10.5%
"WNK3 (Homo sapiens, UniProt Q9BYP7)",86.3%
"EPHB4 (Homo sapiens, UniProt P54760)",76.9%
"PRKACG (Homo sapiens, UniProt P22612)",101%

# Repeated from above (study 2):
Compound,inhibition
O=C1CCc2cc(Nc3cc(OC4CCOCC4)c([N+](=O)[O-])cc3Cl)ccc2N1,-1.73%
CN([C@@H]1CCc2c(CC(=O)O)c3cc(S(C)(=O)=O)ccc3n2C1)S(=O)(=O)c1ccc(F)cc1,0.0525%
CC(C)(O)c1cncc(-c2nc3ccc(F)cc3n2C2CC2)c1,2.65%
Nc1c(C(=O)NCc2ccc(C(=O)NCCCC3CCCCC3)cc2)cnn1-c1ccccc1,6.62%
